Assay results of several laboratories.
Parts stem from different laboratories: compare values within a part only. Substitutions count along the parent as printed.

Series 1 — method: RNA Bind-n-Seq; form: RNA; sample: in vitro; tested at: 365 nM; reference: no-protein control; reading: higher = stronger binding; measurement: RBNS enrichment (R)
Target: RNA binding protein fox-1 homolog 2, RRM domain, GST-SBP tag (RBFOX2, Homo sapiens, UniProt O43251-10, residues 100-194)
Setting: natural RNA segment, single round, ends assumed
Shared flanks, not repeated: GGGAGUUCUACAGUCCGACGAUC … UGGAAUUCUCGGGUGCCAA
Construct (chain): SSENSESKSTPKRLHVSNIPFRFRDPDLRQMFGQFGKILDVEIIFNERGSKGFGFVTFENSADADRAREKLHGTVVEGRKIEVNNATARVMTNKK
Sequence = AACAGCCUCCUCCAGCCCUGCUUUAGGAUGACACAAUGAAUAACACCUAGGCAUAGAAACCAGUCUCUUUGGUUUGUUUGUAUUAUGUUCUACAAUAUUAAAGAUCUAAA; value = 0.51
Sequence = CCCCAUCUCCUCCUUCCAGCCAGGUCUGGAAGUUUCAACAGCCCAAGCUUAACUUCAUGUAAAGUCUUCACUGCCAGUGGGAACAUCUUUGACACAACAAGACACUCCAA; value = 0.243
Sequence = GGAGAAGGAGCGGGCCCUCCCGCGCCCUGUGCUGGCCGGAGCAGCGUUUUCUUAUGGUGGAGCAGCUGAGGAGGGCAGGAACCGCCUCUCAGCACCGACCUCCCCUGAUC; value = 0.259
Sequence = GCCCAGGGGACCCUGGUGGAUUUAGGGACUGUCCCCUCCCAUACUCCAAUAGAGGCCUAUCCUGACUAGAGAAGACUGGUGAGGGUUGAUACGGGAUUUGAAUUCCCAGA; value = 0.315
Sequence = UUCUGUUUCUGUUUAUAAUGAAGAACACUGUAGCUACAUUUUCAGAAGUUAACAUCAAGCCAUCAAACCUGGGUAUAGUGCAGAAAACGUGGCACACACUGACCACACAU; value = 0.58
Sequence = CAGCUAAUUUUUGUAUUUUUAGUAGAGAUGGGAUUUUGUCAUGUUGGCUAGGCUAGUCUCGAAUUCCUGACCUCAAGUGAUCCACCCGCCUUGGCCUCUCGAAGUGCUGG; value = 1.54
Sequence = AGAAAUGCCAGAAAUAAAUUAAUUGCAUCUUAGUCUAAAUUUAAGUCCUUUGCCAUGAGGAAAAAGUGGUUUUUUGCUUCAUAUGGUAAAUCUAUAUUAUUCAUAUUGAA; value = 1.53

Series 2 — method: universal PBM; form: double-stranded DNA, one strand shown; sample: in vitro; tested at: not given; reading: higher = stronger binding; measurement: E-score
Target: Sal-like protein 4, full length isoform B (SALL4, Homo sapiens, UniProt Q9UJQ4-2, residues 1-616)
Setting: 8-mer, flanks averaged, mean of replicates
Construct (chain): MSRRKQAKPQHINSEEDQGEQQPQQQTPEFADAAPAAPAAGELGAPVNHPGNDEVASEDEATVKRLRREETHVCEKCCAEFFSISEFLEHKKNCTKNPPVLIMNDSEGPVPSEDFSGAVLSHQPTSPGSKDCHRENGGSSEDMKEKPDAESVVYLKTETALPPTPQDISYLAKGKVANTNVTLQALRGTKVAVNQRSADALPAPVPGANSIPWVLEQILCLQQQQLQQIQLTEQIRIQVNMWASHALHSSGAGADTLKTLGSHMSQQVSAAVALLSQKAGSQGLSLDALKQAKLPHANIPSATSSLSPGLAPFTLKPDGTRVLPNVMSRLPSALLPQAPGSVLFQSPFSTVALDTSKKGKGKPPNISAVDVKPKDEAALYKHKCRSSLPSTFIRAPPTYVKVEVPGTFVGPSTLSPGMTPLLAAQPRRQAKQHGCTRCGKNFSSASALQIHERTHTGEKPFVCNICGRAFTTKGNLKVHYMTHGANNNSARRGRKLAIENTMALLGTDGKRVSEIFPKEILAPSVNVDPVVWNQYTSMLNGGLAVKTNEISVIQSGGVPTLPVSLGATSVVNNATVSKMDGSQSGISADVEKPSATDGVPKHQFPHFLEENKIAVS
Sequence = GGGAGAGA; value = -0.165
Sequence = ATCTCCTA; value = 0.0676
Sequence = ACGGTTCA; value = -0.182
Sequence = GTCGGTCA; value = 0.00428
Sequence = AACGGAAC; value = -0.191

Series 3 — target: CCNE1, cyclin fold, Cln2 fusion (human); method: yeast growth competition, sequencing; sample: yeast; setting: weak parent motif; reference: not given; reading: higher = stronger binding; measurement: normalised enrichment score
Starting sequence: ORC1 docking peptide (human); PRARKRLELGNLG
Change = K5M; value = 0.557
Change = R2V; value = 0.105
Change = L12F; value = 0.663
Change = R4P; value = -0.0282
Change = L9I; value = 0.565

Mixed results
Molecule = PhoQ, residues 284 288 289 292 302 303 SSTLSG; target = PhoP, residues 12 14 15 18 19 SQCLL (Escherichia coli, UniProt P23836); assay = Sort-seq, measured: YFP reporter; test system = E. coli; conditions = PhoQ-PhoP variant library, together with: 10 µM Mg2+; scale = reference: high Mg2+ state, higher = stronger signaling; measurement = fold induction; value = 14.7

Repeated from above (series 3):
Change = R2V; value = 0.105
